Assay results from different studies.
± gives the spread as reported. ≈ marks a conversion by molar mass, not a printed value.
Sequence of UniProt Q9Y5Y9 (whole entry, looked up): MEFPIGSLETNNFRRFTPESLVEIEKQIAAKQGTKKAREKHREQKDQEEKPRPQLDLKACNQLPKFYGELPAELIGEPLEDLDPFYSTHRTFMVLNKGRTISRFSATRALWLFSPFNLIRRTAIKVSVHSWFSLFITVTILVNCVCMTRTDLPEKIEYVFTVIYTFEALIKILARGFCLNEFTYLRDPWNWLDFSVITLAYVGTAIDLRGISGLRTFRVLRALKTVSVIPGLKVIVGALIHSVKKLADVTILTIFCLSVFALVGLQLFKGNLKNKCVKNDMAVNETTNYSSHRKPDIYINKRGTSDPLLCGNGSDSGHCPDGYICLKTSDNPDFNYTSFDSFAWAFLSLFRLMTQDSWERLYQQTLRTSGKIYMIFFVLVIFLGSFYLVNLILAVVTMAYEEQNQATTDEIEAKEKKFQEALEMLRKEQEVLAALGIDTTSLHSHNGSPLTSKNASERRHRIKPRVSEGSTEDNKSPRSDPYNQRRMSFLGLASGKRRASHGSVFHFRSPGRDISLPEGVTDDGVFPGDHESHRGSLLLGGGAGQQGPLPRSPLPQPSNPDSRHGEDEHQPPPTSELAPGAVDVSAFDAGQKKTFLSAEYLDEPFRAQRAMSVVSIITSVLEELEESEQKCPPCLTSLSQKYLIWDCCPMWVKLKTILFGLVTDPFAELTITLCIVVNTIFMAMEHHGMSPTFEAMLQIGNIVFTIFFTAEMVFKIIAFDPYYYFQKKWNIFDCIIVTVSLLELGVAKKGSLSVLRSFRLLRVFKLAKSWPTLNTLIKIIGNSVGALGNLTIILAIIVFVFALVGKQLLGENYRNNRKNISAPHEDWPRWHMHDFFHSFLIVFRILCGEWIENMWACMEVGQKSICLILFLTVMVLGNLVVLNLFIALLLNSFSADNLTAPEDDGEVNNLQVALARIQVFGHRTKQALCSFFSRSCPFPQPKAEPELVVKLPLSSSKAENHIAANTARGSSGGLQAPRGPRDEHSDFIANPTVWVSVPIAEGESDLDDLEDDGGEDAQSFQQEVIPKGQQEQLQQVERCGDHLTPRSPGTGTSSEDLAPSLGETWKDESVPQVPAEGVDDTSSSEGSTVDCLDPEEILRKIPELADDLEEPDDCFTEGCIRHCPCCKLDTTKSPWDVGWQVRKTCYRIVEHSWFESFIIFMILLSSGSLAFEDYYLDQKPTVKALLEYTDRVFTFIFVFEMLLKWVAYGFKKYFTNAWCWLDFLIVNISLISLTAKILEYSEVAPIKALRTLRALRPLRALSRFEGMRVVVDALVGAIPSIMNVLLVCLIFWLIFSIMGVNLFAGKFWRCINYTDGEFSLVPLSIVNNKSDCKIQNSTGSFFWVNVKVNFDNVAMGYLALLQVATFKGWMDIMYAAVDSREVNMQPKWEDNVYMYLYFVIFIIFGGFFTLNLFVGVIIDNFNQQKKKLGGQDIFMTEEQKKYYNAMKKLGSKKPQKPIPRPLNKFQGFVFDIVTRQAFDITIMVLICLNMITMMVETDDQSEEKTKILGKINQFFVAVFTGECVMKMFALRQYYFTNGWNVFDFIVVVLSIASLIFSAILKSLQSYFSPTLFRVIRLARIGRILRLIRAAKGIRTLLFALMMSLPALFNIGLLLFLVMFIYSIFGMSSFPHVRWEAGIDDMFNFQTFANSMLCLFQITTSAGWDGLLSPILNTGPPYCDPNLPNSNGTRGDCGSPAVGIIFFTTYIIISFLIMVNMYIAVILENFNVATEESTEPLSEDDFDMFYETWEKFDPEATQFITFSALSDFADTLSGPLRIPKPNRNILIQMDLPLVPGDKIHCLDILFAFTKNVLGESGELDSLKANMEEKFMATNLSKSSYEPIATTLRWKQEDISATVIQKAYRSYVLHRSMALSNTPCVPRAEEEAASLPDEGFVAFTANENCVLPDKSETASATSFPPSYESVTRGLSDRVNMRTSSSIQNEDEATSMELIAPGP

Structure (SMILES)	target or system	test	system	conditions	endpoint	value
CCCCCCCCCC1O[C@@H]2C[C@H]3[C@@H]4CCC5=CC(=O)C=C[C@]5(C)[C@H]4[C@@H](O)C[C@]3(C)[C@]2(C(=O)CO)O1 (stereo partly drawn)	Severe acute respiratory syndrome coronavirus 2	viral replication	VeroE6/TMPRSS2	–	IC50	6.4 µM
CC[C@H](C)[C@@H]([C@@H](CC(=O)N1CCC[C@H]1[C@H](OC)[C@@H](C)C(=O)N[C@H](C)[C@@H](O)c1ccccc1)OC)N(C)C(=O)[C@@H](NC(=O)[C@H](C(C)C)N(C)C(=O)OCc1ccc(NC(=O)[C@H](CCCNC(N)=O)NC(=O)[C@@H](NC(=O)CCCC(=O)NCCC(=O)N(C)CC(=O)N(C)CC(=O)N(C)CC(=O)N(C)CC(=O)N(C)CC(=O)N(C)CC(=O)N(C)CC(=O)N(C)CC(=O)N(C)CC(=O)N(C)CC(=O)N[C@H]2CSCCC(=O)N3CN4CN(C3)C(=O)CCSC[C@H](NC(=O)[C@@H](CC(=O)O)NC(=O)[C@H](Cc3cccc5ccccc35)NC(=O)[C@@H]3CCCN3C2=O)C(=O)N[C@@H](CCSC)C(=O)N[C@@H](CCCCNC(=N)N)C(=O)N[C@@H](CC(=O)O)C(=O)N[C@@H](Cc2c[nH]c3ccccc23)C(=O)N[C@@H](CO)C(=O)N[C@@H]([C@@H](C)O)C(=O)N2CCC[C@H]2C(=O)N2C[C@H](O)C[C@H]2C(=O)N[C@@H](Cc2c[nH]c3ccccc23)C(=O)N[C@H](C(N)=O)CSCCC4=O)C(C)C)cc1)C(C)C	–	–	mouse, plasma	intravenous, 3 mg/kg	half-life	~1 h
O=C(OC1Cc2c(O)cc(O)cc2OC1c1cc(O)c(O)c(O)c1)c1cc(O)c(O)c(O)c1 (stereo not drawn)	Severe acute respiratory syndrome coronavirus 2	antiviral activity	Huh-7	96 h	EC50	> 100 µM
CC(=O)OCC1OC(OC2CCC3(C)C(CCC4(C)C3CC=C3C5CC(C)(C)CCC5(C(=O)O)CCC34C)C2(C)C)C(OC2OC(C)C(OC(C)=O)C(OC(C)=O)C2OC(C)=O)C(OC(C)=O)C1OC1OC(C)C(OC(C)=O)C(OC(C)=O)C1OC(C)=O (stereo not drawn)	Severe acute respiratory syndrome coronavirus 2	viral replication	293T/ACE2	20 µM	inhibition	48.2%
Cc1ccc(N2CC3CC(C2)N3C)cc1C(=O)NC1(c2ccc3c4c(cccc24)C(=O)N3C)CC1	Severe acute respiratory syndrome coronavirus 2	viral replication	Vero C1008	4.167 µM	inhibition	100%
O=C(C=Cc1ccc(O)c(O)c1)OC1CC(O)(C(=O)O)CC(OC(=O)C=Cc2ccc(O)c(O)c2)C1O (stereo not drawn)	Severe acute respiratory syndrome coronavirus 2	cytopathic effect, inhibitor	Vero C1008	0.7812 µM	inhibition	0%
CCCCCCCCCCCCCCCC1O[C@@H]2C[C@H]3[C@@H]4CCC5=CC(=O)C=C[C@]5(C)[C@H]4[C@@H](O)C[C@]3(C)[C@]2(C(=O)CO)O1 (stereo partly drawn)	Severe acute respiratory syndrome coronavirus 2	viral replication	VeroE6/TMPRSS2	–	IC50	19.3 µM
CC1OC(OC2C(CO)OC(OC3CCC4(C)C(CCC5(C)C4CC=C4C6CC(C)(C)CCC6(C(=O)OC6CCCC6)CCC45C)C3(C)C)C(OC3OC(C)C(O)C(O)C3O)C2O)C(O)C(O)C1O (stereo not drawn)	Severe acute respiratory syndrome coronavirus 2	viral replication	293T/ACE2	20 µM	inhibition	67.8%
CC(=O)OC1(C)CC(C=C(C)CCC=C(C)C)OC2(C=C(CO)C3CC(=O)C(C)=CC3O2)C1 (stereo not drawn)	Severe acute respiratory syndrome coronavirus 2	viral replication	Calu-3	50 µM	inhibition	91%
COC(=O)c1cc2c(=O)n3ccccc3nc2n1Cc1ccccc1	Severe acute respiratory syndrome coronavirus 2	viral replication, inhibitor, qPCR	Vero C1008	–	EC90	36.1 µM
CC(C)C[C@@H]1NC(=O)[C@H](CCCNC(=N)N)NC(=O)[C@@H]2CCCN2C(=O)[C@@H]2CSSC[C@H](NC(=O)CNC(=O)[C@@H]3CCCN3C(=O)[C@H](CCCCN)NC(=O)[C@H](CC(=O)O)NC(=O)[C@@H](NC(=O)CN)C(C)C)C(=O)N[C@@H](CCCNC(=N)N)C(=O)N[C@@H](Cc3ccc(O)cc3)C(=O)N[C@@H](CC(C)C)C(=O)N[C@@H](Cc3ccccc3)C(=O)NCC(=O)NCC(=O)N[C@H]3CSSC[C@H](NC(=O)CNC1=O)C(=O)N[C@@H](CCCCN)C(=O)NCC(=O)N[C@@H](CCCCN)C(=O)NCC(=O)N[C@@H](Cc1c[nH]cn1)C(=O)N[C@@H](CC(=O)O)C(=O)N[C@@H](Cc1ccc(O)cc1)C(=O)N[C@H](C(=O)N[C@@H](C)C(=O)N[C@@H](Cc1c[nH]c4ccccc14)C(=O)N[C@@H](CC(=O)O)C(=O)NCC(=O)N[C@H](C(=O)N[C@@H](Cc1ccccc1)C(=O)N[C@@H](CO)C(=O)N[C@@H](CC(=O)O)C(=O)O)[C@@H](C)O)CSSC[C@H](NC(=O)[C@H](CC(=O)O)NC(=O)[C@H](CC(=O)O)NC(=O)[C@H](CC(=O)O)NC(=O)[C@H](CO)NC(=O)[C@H](CCCCN)NC3=O)C(=O)N2	Sodium channel protein type 10 subunit alpha (SCN10A, Homo sapiens, UniProt Q9Y5Y9)	open-state inactivation	–	1 µM, test potential -10 mV	inactivation time constant	26.2 ± 3.6 ms
CCCCCCCCCCCCCCCC(=O)N[C@@H](CCC(=O)NCCCC[C@H](NC(=O)[C@H](CC(=O)O)NC(=O)[C@H](CO)NC(=O)[C@@H](NC(=O)[C@H](Cc1ccccc1)NC(=O)[C@@H](NC(=O)CNC(=O)[C@H](CCC(N)=O)NC(=O)[C@H](C)NC(=O)[C@@H](Cc1ccc(O)cc1)NC(C)=O)[C@@H](C)O)[C@@H](C)O)C(=O)N[C@@H](CO)C(=O)N[C@@H](CCCCN)C(=O)N[C@@H](Cc1ccc(O)cc1)C(=O)N[C@@H](CC(C)C)C(=O)N[C@@H](CC(=O)O)C(=O)N[C@@H](CCC(=O)O)C(=O)N[C@@H](CCCNC(=N)N)C(=O)N[C@@H](C)C(=O)N[C@@H](C)C(=O)N[C@@H](CCC(N)=O)C(=O)N[C@@H](CC(=O)O)C(=O)N[C@@H](Cc1ccccc1)C(=O)N[C@H](C(=O)N[C@@H](CCC(N)=O)C(=O)N[C@@H](Cc1c[nH]c2ccccc12)C(=O)N[C@@H](CC(C)C)C(=O)N[C@@H](CC(C)C)C(=O)N[C@@H](CCC(=O)O)C(=O)NCC(=O)NCC(=O)N1CCC[C@H]1C(=O)N[C@@H](CO)C(=O)N[C@@H](CO)C(=O)NCC(=O)N[C@@H](C)C(=O)N1CCC[C@H]1C(=O)N1CCC[C@H]1C(=O)N1CCC[C@H]1C(=O)N[C@@H](CO)C(N)=O)C(C)C)C(=O)O	–	–	male Wistar rat, plasma	intravenous, 0.02 mg/kg	Cmax	312 ng/mL
C[C@]12C=CC(=O)C=C1CC[C@@H]1[C@@H]2[C@@H](O)C[C@@]2(C)[C@H]1C[C@H]1OC(c3ccccc3Cl)O[C@]12C(=O)CO (stereo partly drawn)	Severe acute respiratory syndrome coronavirus 2	viral replication, inhibitor	VeroE6/TMPRSS2	24 h	IC50	9.1 µM
CC1OC(OC2C(CO)OC(OC3CCC4(C)C(CCC5(C)C4CC=C4C6CC(C)(C)CCC6(C(=O)O)CCC45C)C3(C)C)C(OC3OC(C)C(O)C(O)C3O)C2O)C(O)C(O)C1O (stereo not drawn)	Severe acute respiratory syndrome coronavirus 2	viral replication	293T/ACE2	20 µM	inhibition	57.6%
CC[C@H](C)[C@H](NC(=O)[C@H](CCCN)NC(=O)[C@H](CC(=O)O)NC(=O)[C@H](CC(C)C)NC(=O)C(C)(CC(C)C)NC(=O)[C@@H](NC(=O)[C@H](CO)NC(=O)[C@H](Cc1ccc(O)cc1)NC(=O)[C@H](CC(=O)O)NC(=O)[C@H](CO)NC(=O)[C@@H](NC(=O)[C@H](Cc1ccccc1)NC(=O)[C@@H](NC(=O)CNC(=O)[C@H](CCC(=O)O)NC(=O)C(C)(C)NC(=O)[C@@H](N)Cc1ccc(O)cc1)[C@@H](C)O)[C@@H](C)CC)[C@@H](C)CC)C(=O)N[C@@H](Cc1c[nH]cn1)C(=O)N[C@@H](CCC(N)=O)C(=O)NC(C)(C)C(=O)N[C@@H](CC(=O)O)C(=O)N[C@@H](Cc1ccccc1)C(=O)N[C@H](C(=O)N[C@@H](CCC(=O)O)C(=O)N[C@@H](Cc1ccc(O)cc1)C(=O)N[C@@H](CCCCNC(=O)COCCOCCNC(=O)COCCOCCNC(=O)CC[C@H](NC(=O)CCCCCCCCCCCCCCCCCCC(=O)O)C(=O)O)C(=O)N[C@@H](CC(C)C)C(=O)N[C@@H](CCC(=O)O)C(=O)NCC(=O)NCC(=O)N1CCC[C@H]1C(=O)N[C@@H](CO)C(=O)N[C@@H](CO)C(=O)NCC(=O)N[C@@H](C)C(=O)N1CCC[C@H]1C(=O)N1CCC[C@H]1C(=O)N1CCC[C@H]1C(=O)N[C@@H](CO)C(N)=O)C(C)C (stereo partly drawn)	–	–	type 2 diabetes patients	subcutaneous, 25 mg, single ascending dose	Tmax	24 h
CC[C@H](C)[C@H](NC(=O)[C@H](CCCCN)NC(=O)[C@H](CCCCN)NC(=O)[C@H](CC(C)C)NC(=O)[C@H](Cc1c[nH]c2ccccc12)NC(=O)CN)C(=O)NCC(=O)N[C@@H](CCCCN)C(=O)N[C@@H](CCCCN)C(=O)N[C@H](C(=O)N[C@@H](CCC(=O)O)C(=O)N[C@@H](CCCNC(=N)N)C(=O)N[C@H](C(=O)NCC(=O)N[C@@H](CCC(N)=O)C(=O)N[C@@H](Cc1c[nH]cn1)C(=O)N[C@H](C(=O)N[C@@H](CCCNC(=N)N)C(=O)N[C@@H](CC(=O)O)C(=O)N[C@@H](C)C(=O)N[C@H](C(=O)N[C@H](C(=O)N[C@@H](CCC(N)=O)C(=O)N[C@H](C(=O)N[C@H](C(=O)NCC(=O)N[C@H](C(=O)N[C@@H](C)C(=O)N[C@@H](CCC(N)=O)C(=O)N[C@@H](CCC(N)=O)C(=O)N[C@@H](C)C(=O)N[C@@H](C)C(=O)N[C@@H](CC(N)=O)C(=O)N[C@H](C(=O)N[C@@H](C)C(=O)N[C@@H](C)C(=O)N[C@H](C(=O)N[C@@H](CC(C)C)C(=O)N[C@@H](CCCCN)C(N)=O)[C@@H](C)O)C(C)C)C(C)C)[C@@H](C)CC)[C@@H](C)O)[C@@H](C)CC)[C@@H](C)O)[C@@H](C)O)C(C)C)[C@@H](C)CC	Acinetobacter baumannii	broth microdilution	RKI 19/09, CAMHB with 10% mouse serum	150 mM NaCl	MIC	0.5 µg/mL (≈ 0.119 µM)
CCCCCCCCCCCCCCCC(=O)N[C@@H](CCC(=O)NCCOCCOCCC(=O)NCCOCCOCCC(=O)NCCCC[C@H](NC(=O)[C@H](CC(=O)O)NC(=O)[C@H](CC(C)C)NC(=O)[C@H](Cc1ccc(O)cc1)NC(=O)[C@H](CCCCN)NC(=O)[C@H](CO)NC(=O)[C@H](Cc1ccc(O)cc1)NC(=O)[C@H](CC(=O)O)NC(=O)[C@H](CO)NC(=O)[C@@H](NC(=O)[C@H](Cc1ccccc1)NC(=O)[C@@H](NC(=O)CNC(=O)[C@H](CCC(N)=O)NC(=O)[C@@H](CO)NC(=O)[C@@H](N)Cc1c[nH]cn1)[C@@H](C)O)[C@@H](C)O)C(=O)N[C@@H](CCCNC(=N)N)C(=O)N[C@@H](CCCNC(=N)N)C(=O)N[C@@H](C)C(=O)N[C@@H](CCC(N)=O)C(=O)N[C@@H](CC(=O)O)C(=O)N[C@@H](Cc1ccccc1)C(=O)N[C@H](C(=O)N[C@@H](CCC(N)=O)C(=O)N[C@@H](Cc1c[nH]c2ccccc12)C(=O)N[C@@H](CC(C)C)C(=O)N[C@@H](CC(C)C)C(=O)N[C@@H](CC(N)=O)C(=O)N[C@H](C(=O)NCC(=O)NCC(=O)N1CCC[C@H]1C(=O)N[C@@H](CO)C(=O)N[C@@H](CO)C(=O)NCC(=O)N[C@@H](C)C(=O)N1CCC[C@H]1C(=O)N1CCC[C@H]1C(=O)N1CCC[C@H]1C(=O)N[C@@H](CO)C(N)=O)[C@@H](C)O)C(C)C)C(=O)O	–	item: CK	rhesus monkey, male	subcutaneous, 60 µg/kg once daily, 28 days	serum enzyme activity	129 ± 47 U/L
CCCCCCCCCCCCC1O[C@@H]2C[C@H]3[C@@H]4CCC5=CC(=O)C=C[C@]5(C)[C@H]4[C@@H](O)C[C@]3(C)[C@]2(C(=O)CO)O1 (stereo partly drawn)	Severe acute respiratory syndrome coronavirus 2	viral replication, inhibitor	Calu-3	–	IC50	16.1 µM

Excerpt of the above:
Structure (SMILES)	target or system	test	system	conditions	endpoint	value
CC1OC(OC2C(CO)OC(OC3CCC4(C)C(CCC5(C)C4CC=C4C6CC(C)(C)CCC6(C(=O)O)CCC45C)C3(C)C)C(OC3OC(C)C(O)C(O)C3O)C2O)C(O)C(O)C1O (stereo not drawn)	Severe acute respiratory syndrome coronavirus 2	viral replication	293T/ACE2	20 µM	inhibition	57.6%
